Measured values collected from several papers.
Lines come from different studies, so protocols differ. Numbers after ± are the reported error.
ACE2: Angiotensin-converting enzyme 2 (ACE2, Homo sapiens, UniProt Q9BYF1)
CYP2A6: Cytochrome P450 2A6 (CYP2A6, Homo sapiens, UniProt P11509)

CC[N+](CC)(CC)CC(=O)Nc1c(C)cccc1C  Kd (potassium channel; steady-state block; Doryteuthis pealeii; internal application, together with: membrane potential +100 mV): 961 µM
CC[C@H](C)[C@H](NC(=O)[C@@H]1CCCN1C(=O)[C@H](CC(C)C)NC(=O)[C@H](Cc1ccccc1)NC(=O)[C@H](CCC(=O)O)NC(=O)CNC(=O)[C@@H](NC(=O)[C@H](CCC(=O)O)NC(=O)[C@H](CCC(=O)O)NC(=O)[C@H](CC(=O)O)NC(=O)[C@H](CC(C)C)NC(=O)[C@H](CCC(N)=O)NC(=O)[C@H](CC(C)C)NC(=O)[C@H](CCC(N)=O)NC(=O)[C@H](C)NC(=O)[C@H](Cc1ccccc1)NC(C)=O)[C@@H](C)O)C(=O)N[C@@H](CCC(N)=O)C(=O)N1CCC[C@H]1C(=O)N[C@@H](C)C(=O)N[C@@H](CCC(N)=O)C(N)=O  Kd (KEAP1 (Homo sapiens, UniProt Q14145); binding, ITC; pH 7): 0.023 µM
CN[C@H]1C(=O)N[C@@H]2Cc3ccc(cc3)Oc3cc4cc(c3O[C@@H]3O[C@H](C(=O)O)[C@@H](O)[C@H](O)[C@H]3NC(=O)CCCCCCCCC(C)C)Oc3ccc(cc3Cl)[C@@H](O)[C@@H]3NC(=O)[C@H](NC(=O)[C@@H]4NC(=O)[C@@H](NC2=O)c2cc(cc(O)c2Cl)Oc2cc1ccc2O)c1ccc(O)c(c1)-c1c(O[C@H]2O[C@H](CO)[C@@H](O)[C@H](O)[C@@H]2O)cc(O)cc1[C@@H](C(=O)NCCCN(C)C)NC3=O  Kd (MBP-Lys-D-Ala-D-Ala fusion; binding, SPR; 25 °C): 0.13 ± 0.02 µM
c1ccc2c(CN3CCN(Cc4c[nH]c5ccccc45)CC3)c[nH]c2c1  Kd (acetylcholine binding protein (Bulinus truncatus); binding, scintillation proximity; together with: 5 nM [3H]epibatidine): 1.89 µM
CCSCCNC(=O)CCNC(=O)[C@H](O)C(C)(C)COP(=O)(O)OP(=O)(O)OC[C@H]1O[C@@H](n2cnc3c(N)ncnc32)[C@H](O)[C@@H]1OP(=O)(O)O  Kd (Chloramphenicol acetyltransferase (cat, Escherichia coli, UniProt P62577); ligand, native ESI-MS; third ligand binding, gas phase, together with: 200 mM ammonium acetate): 21 ± 8 µM
N#C[C@H](O[C@@H]1O[C@H](CO[C@@H]2O[C@H](CO)[C@@H](O)[C@H](O)[C@H]2O)[C@@H](O)[C@H](O)[C@H]1O)c1ccccc1  Kd (ACE2; binding, SPR): 0.221 µM
[2Fe-2S](GS)4  Kd (ATM1 (Saccharomyces cerevisiae, UniProt P40416); ATPase stimulation, activator; wild type, together with: MgATP): 0.91 ± 0.06 µM
CC#Cc1ccc2c(ccc3ccccc32)c1  Kd (CYP2A6; binding, absorbance; pH 7.4): 1.6 µM
c1c[nH]cn1  Kd (Nitric oxide synthase 1, heme domain (Nos1, Rattus norvegicus, UniProt P29476); heme binding, difference spectroscopy; pH 7.5): 120 ± 20 µM
Nc1ncnc2c1ncn2[C@@H]1O[C@H](COP(=O)(O)OP(=O)(O)NP(=O)(O)O)[C@@H](O)[C@H]1O  Kd (matB (Rhodopseudomonas palustris, UniProt Q6ND88, C106A/K488A/Q457C/R286C); binding, fluorescence titration; pH 7.0, 20 °C): 253 ± 11 µM
CCCn1c(=O)c2[nH]c(-c3ccc(OCC(=O)Nc4ccc(C(C)=O)cc4)cc3)nc2n(CCC)c1=O  Kd (ADORA2A (Homo sapiens, UniProt P29274, A54L/K122A/T88A/V239A); binding, antagonist, surface plasmon resonance; 25 °C, 1% DMSO): 0.103 µM
CSCC[C@H](NC(=O)[C@@H]1CCCN1)C(=O)N[C@@H](C)C(=O)N[C@@H](CO)C(=O)N[C@@H](CC(=O)O)C(=O)N1CCC[C@H]1C(=O)N[C@@H](CC(C)C)C(=O)NCC(=O)N[C@H](C(=O)N[C@H](C(=O)N[C@@H](CCCNC(=N)N)C(=O)N1CCC[C@H]1C(=O)N[C@@H](CCCNC(=N)N)C(=O)N[C@@H](C)C(=O)N[C@@H](CCCNC(=N)N)C(=O)N[C@@H](C)C(N)=O)C(C)C)C(C)C  Kd (Klotho (Kl, Mus musculus, UniProt O35082); binding, competitive BLI; 30 °C, 30 min preincubation, together with: biotinylated peptide immobilized): 6.5 ± 1.2 µM
CC(C)C[C@H](N[C@@H](Cc1cncn1Cc1cc(Cl)cc(Cl)c1)C(=O)O)C(=O)O  Kd (ACE2; binding, SPR): 0.029 µM
CCCCCCCCCCCCCCCC(=O)N[C@@H](CCC(=O)O)C(=O)O  Kd (Bifunctional cytochrome P450/NADPH--P450 reductase, heme domain (cyp102A1, Bacillus megaterium, UniProt P14779); substrate binding, substrate, UV-vis spectral titration; pH 7.4, room temperature, wild-type heme domain): 3.7 ± 0.13 µM
C[n+]1cn([C@@H]2O[C@H](COP(=O)(O)OP(=O)([O-])OP(=O)(O)OC[C@H]3O[C@@H](n4cnc5c(=O)[nH]c(N)nc54)[C@H](O)[C@@H]3O)[C@@H](O)[C@H]2O)c2nc(N)[nH]c(=O)c21  Kd (m7GpppX diphosphatase (DCS1, Saccharomyces cerevisiae, UniProt Q06151, H268N); isothermal titration calorimetry; 25 °C, open site, H268N): 324 µM
CC(=O)N(O)CCC[C@@H]1NC(=O)CNC(=O)CNC(=O)CNC(=O)[C@H](CCCN(O)C(C)=O)NC(=O)[C@H](CCCN(O)C(C)=O)NC1=O.[Fe+3]  Kd (Ferrichrome-binding lipoprotein FhuD (Listeria monocytogenes, UniProt Q8Y5U6); binding, tryptophan fluorescence quenching; His tag removed): 0.243 ± 0.013 µM
cGMP  Kd (Potassium/sodium hyperpolarization-activated cyclic nucleotide-gated channel 2, C-linker/CNBD (Hcn2, Mus musculus, UniProt O88703, E582A); binding, ITC; E582A mutant, single-site model): 690 µM
CCCCCCCO[C@@H]1C[C@@H](O)[C@@H](O)[C@H](O)[C@@H](CO)O1  Kd (fimH (Escherichia coli K-12, UniProt P08191); binding, competitive fluorescence polarization; full-length FimH): > 500 µM
CC[C@H](C)[C@H](NC(=O)[C@@H]1CCCN1C(=O)[C@@H](NC(=O)[C@H](CC(=O)O)NC(=O)[C@@H](NC(=O)[C@@H](N)CC(=O)O)[C@@H](C)O)[C@@H](C)O)C(=O)N[C@H](C(=O)N[C@@H](Cc1ccc(O)cc1)C(=O)N[C@@H](CC(N)=O)C(=O)N[C@@H](CC(=O)O)C(=O)N[C@@H](CCCNC(=N)N)C(=O)N[C@@H](CC(=O)O)C(=O)N1CCC[C@H]1C(=O)N[C@@H](CC(C)C)C(=O)N[C@@H](CC(=O)O)C(=O)O)C(C)C  Kd (HSPA1A (Homo sapiens, UniProt P0DMV8); binding, SPR; pH 7.4): 329 µM
C#Cc1ccc2c(ccc3ccccc32)c1  Kd (CYP2A6; binding, absorbance; pH 7.4): 3.3 µM
CC[C@H](C)[C@H](NC(=O)[C@H](CC(=O)O)NC(=O)[C@H](CO)NC(=O)[C@@H]1CCCN1C(=O)[C@H](Cc1ccc(O)cc1)NC(=O)[C@H](Cc1ccccc1)NC(=O)CNC(=O)[C@H](CCCCN)NC(=O)[C@@H](NC(=O)[C@H](CC(C)C)NC(=O)[C@H](CS)NC(=O)[C@@H](NC(=O)[C@@H](N)CC(C)C)[C@@H](C)O)C(C)C)C(=O)O  Kd (Ficolin-3 (FCN3, Homo sapiens, UniProt O75636); SPR; GlcNAc-BSA chip): ~1 µM
CC[N+](CC)(CCO)CCCc1ccccc1  Kd (potassium channel; steady-state block; Doryteuthis pealeii; internal application, together with: membrane potential +100 mV): 7.7 µM
CC[N+](CC)(CC)CC(=O)Nc1c(C)cccc1C  Kd (sodium channel (rat brain), batrachotoxin-modified; open channel block, blocker, planar lipid bilayer, single channel; symmetrical 0.5 M NaCl, 150 mV): 910 µM

A few entries again:
CCCCCCCCCCCCCCCC(=O)N[C@@H](CCC(=O)O)C(=O)O  Kd (Bifunctional cytochrome P450/NADPH--P450 reductase, heme domain (cyp102A1, Bacillus megaterium, UniProt P14779); substrate binding, substrate, UV-vis spectral titration; pH 7.4, room temperature, wild-type heme domain): 3.7 ± 0.13 µM
C[n+]1cn([C@@H]2O[C@H](COP(=O)(O)OP(=O)([O-])OP(=O)(O)OC[C@H]3O[C@@H](n4cnc5c(=O)[nH]c(N)nc54)[C@H](O)[C@@H]3O)[C@@H](O)[C@H]2O)c2nc(N)[nH]c(=O)c21  Kd (m7GpppX diphosphatase (DCS1, Saccharomyces cerevisiae, UniProt Q06151, H268N); isothermal titration calorimetry; 25 °C, open site, H268N): 324 µM
CC(=O)N(O)CCC[C@@H]1NC(=O)CNC(=O)CNC(=O)CNC(=O)[C@H](CCCN(O)C(C)=O)NC(=O)[C@H](CCCN(O)C(C)=O)NC1=O.[Fe+3]  Kd (Ferrichrome-binding lipoprotein FhuD (Listeria monocytogenes, UniProt Q8Y5U6); binding, tryptophan fluorescence quenching; His tag removed): 0.243 ± 0.013 µM
